Measured values collected from several papers.
Numbered parts are unrelated; each lists some results of a single study. Substitutions count along the parent as printed.

Series 1 — technique: DHFR PCA, deep sequencing; matrix: yeast; with: (+)-ABA 2500 µM; reference: wild-type fitted maximum; reading: higher = stronger binding
Target: ABI1, truncated, D143A, DHFR fusion (Arabidopsis thaliana)
Setting: methotrexate growth selection, single substitutions
Parent: PYL1, truncated, DHFR fusion (Arabidopsis thaliana); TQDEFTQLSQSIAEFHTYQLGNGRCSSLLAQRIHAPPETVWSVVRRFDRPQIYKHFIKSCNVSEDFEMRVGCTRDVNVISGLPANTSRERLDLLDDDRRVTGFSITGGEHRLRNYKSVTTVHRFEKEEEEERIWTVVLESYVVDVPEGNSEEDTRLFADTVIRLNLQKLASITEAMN
For `W41H`, “relative binding score” read 38.3%.
For `S59T`, “relative binding score” read 98%.
`I33R`: “relative binding score” -2.23%.
`I172N`: “relative binding score” 81.2%.
Under “relative binding score”, `P146T` is recorded as 79.4%.
Under “relative binding score”, `R113K` is recorded as 109%.
Under “relative binding score”, `I162F` is recorded as -11.7%.
`L82Y`: “relative binding score” 67.7%.
`R46D`: “relative binding score” 82.7%.
For `V121G`, “relative binding score” read 1%.
`C25P` — result for “relative binding score”: 68.2%.
Under “relative binding score”, `D153C` is recorded as 80.3%.
`V40A`: “relative binding score” 79.4%.

Series 2 — technique: competition protein-binding microarray; form: double-stranded DNA, one strand shown; matrix: in vitro; concentration: 2 µM; with: Cbf1 competitor, 0.05 µM; reading: higher = stronger binding
Target: Phosphate system positive regulatory protein PHO4, full length, GST-tagged (PHO4, Saccharomyces cerevisiae, UniProt P07270, residues 1-312)
Setting: whole 60-bp probe, lowest competitor level
Residues (chain): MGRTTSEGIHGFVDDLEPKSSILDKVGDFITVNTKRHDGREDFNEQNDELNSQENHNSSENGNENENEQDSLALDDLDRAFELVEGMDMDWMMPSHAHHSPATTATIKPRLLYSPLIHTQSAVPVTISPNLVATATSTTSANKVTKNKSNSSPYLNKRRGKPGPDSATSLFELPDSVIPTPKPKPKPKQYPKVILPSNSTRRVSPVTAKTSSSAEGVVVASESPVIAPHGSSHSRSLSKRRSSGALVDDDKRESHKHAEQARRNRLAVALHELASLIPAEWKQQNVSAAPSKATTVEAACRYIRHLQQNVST
For `GTTGGGCCACCGGGACCCATGTCTGCGTCCGCGATAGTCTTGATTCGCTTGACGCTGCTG`, the fluorescence intensity was 3620 a.u.
`AAATTACTAAGTTGCCGTGTGGGTGACGCCGTATGAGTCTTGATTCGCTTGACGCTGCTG` has a fluorescence intensity of 5840 a.u.
`CTAACGAAGGTTTGTGCTGTGGGTGACAAGCCAAGTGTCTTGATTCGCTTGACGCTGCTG` has a fluorescence intensity of 4830 a.u.
`GTCTTGTCTCATTGCCCTGTGGGTGTCCCCACTTCAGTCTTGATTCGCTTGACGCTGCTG` gave a fluorescence intensity of 4950 a.u.
`CGTCCTAGTGATTTTCACGTGTCTTCCATGAGGAAGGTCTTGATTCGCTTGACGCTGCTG` has a fluorescence intensity of 13100 a.u.
For `GTAGTTTGCATTTTGCACGTTTCCCTTTCCATGCAAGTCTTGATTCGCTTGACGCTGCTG`, the fluorescence intensity was 11700 a.u.
`TGGTGGAGTTTTACCCACGTGATGGAAGACTCCTGGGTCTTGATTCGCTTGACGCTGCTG` has a fluorescence intensity of 15000 a.u.
With `TTTCTTCGACACCATCACGTAAAACAACAACCAGGAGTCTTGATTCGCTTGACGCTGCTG` the fluorescence intensity was 5310 a.u.
The fluorescence intensity of `AGGCGCGCGCAAAAGCACGCACGGATTGACCGGAGCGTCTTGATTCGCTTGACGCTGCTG` is reported as 8020 a.u.
`CTCGTTACTACCCATCACGTGTCGGATCCCTCGCGAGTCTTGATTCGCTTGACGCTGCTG` gave a fluorescence intensity of 18800 a.u.
`CAGTTCTACTGGTTCGACGTGCTTTACACCCGCAACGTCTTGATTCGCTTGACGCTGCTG` has a fluorescence intensity of 5340 a.u.
The fluorescence intensity of `CTTTCCCGATCTTGTCACCGAACTTTAGCACATTTGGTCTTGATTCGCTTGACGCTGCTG` is reported as 3910 a.u.
The fluorescence intensity of `GCACTACCATGTTTGCACGTGTCGGTGTCCTCATCAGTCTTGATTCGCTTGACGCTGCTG` is reported as 17800 a.u.
`AAATTACTAAGTTGGACAGTGGGTGACGCCGTATGAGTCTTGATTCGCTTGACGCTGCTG` gave a fluorescence intensity of 4180 a.u.
`TATACCTTTGTTCGTCACGTGAACCAACAGAACATGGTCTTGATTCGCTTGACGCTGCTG` gave a fluorescence intensity of 14100 a.u.

Series 3 — target: CCND3, cyclin fold, Cln2 fusion (human); technique: yeast growth competition, sequencing; matrix: yeast; setting: weak parent motif; reference: not given; reading: higher = stronger binding
Parent: CENPC docking peptide (human); VKTKKRLNFDDKV; partner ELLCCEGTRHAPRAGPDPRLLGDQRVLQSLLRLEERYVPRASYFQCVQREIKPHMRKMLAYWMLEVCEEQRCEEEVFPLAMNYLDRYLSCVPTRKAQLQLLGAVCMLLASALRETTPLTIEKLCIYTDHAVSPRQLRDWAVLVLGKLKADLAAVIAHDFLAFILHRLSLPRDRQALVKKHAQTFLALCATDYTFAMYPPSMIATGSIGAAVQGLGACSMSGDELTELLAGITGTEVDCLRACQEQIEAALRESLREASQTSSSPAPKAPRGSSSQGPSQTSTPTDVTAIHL
`VKTKKRLAFDDKV [N8A]`: “normalised enrichment score” 0.25.
`VKTKKRLNFDAKV [D11A]`: “normalised enrichment score” 0.158.
`VKTKARLNFDDKV [K5A]`: “normalised enrichment score” 0.143.
`VKTKKRLNLDDKV [F9L]`: “normalised enrichment score” 0.432.
`VKTKKRANFDDKV [L7A]` — result for “normalised enrichment score”: 0.191.
Under “normalised enrichment score”, `VATKKRLNFDDKV [K2A]` is recorded as 0.143.
For `VKTKKRLNFADKV [D10A]`, “normalised enrichment score” read 0.0475.

Other studies, line by line
With `PhoQ, residues 284 288 289 292 302 303 SCEHLI` the fold induction was 7.15 (PhoP, residues 12 14 15 18 19 VHTVL (Escherichia coli, UniProt P23836); Sort-seq, refers to: YFP reporter; E. coli; PhoQ-PhoP variant library, with: 10 µM Mg2+; reference: high Mg2+ state, higher = stronger signaling).

Repeated from above (series 1):
Under “relative binding score”, `P146T` is recorded as 79.4%.
Under “relative binding score”, `R113K` is recorded as 109%.
Under “relative binding score”, `I162F` is recorded as -11.7%.
